Measured values collected from several papers.
Numbered parts are unrelated; each lists some results of a single study. Substitutions count along the parent as printed.

Series 1
Target: Prothrombin, mature alpha-thrombin (F2, Homo sapiens, UniProt P00734)
Method: aptamer microarray, sandwich
Form: DNA with 2'F-ANA
Matrix: in vitro
Concentration: 200 nM
Notes: whole 15-mer aptamer, many near background
Together with: Cy3 exosite-II aptamer, 400 nM
Reading: higher = stronger binding
Endpoint: mean fluorescence intensity
Oligonucleotide: GGTTGGTGTGGTTGG
2'F-ANA at 1 2 3 4 8 10 11 12 14: 46.6 a.u.
2'F-ANA at 1 3 5 6 8 9 10 11 12 13: 47.3 a.u.
2'F-ANA at 2 3 4 5 6 7 8 10 11 12 13 14: 60.1 a.u.
2'F-ANA at 1 2 5 8 13 15: 50.6 a.u.
2'F-ANA at 3 4 5 6 8 10 11 14: 47.2 a.u.
2'F-ANA at 1 2 4 5 7 8 10 11 14: 48.9 a.u.
2'F-ANA at 1 2 3 7 8 9 10 11 12 13 14: 120 a.u.
2'F-ANA at 2 3 4 5 6 7 8 13 14: 52.6 a.u.
2'F-ANA at 2 5 6 7 11: 56.7 a.u.
2'F-ANA at 1 2 3 6 7 8 9 11 12 13 14: 72.9 a.u.
2'F-ANA at 2 3 4 5 6 7 13 14 15: 50 a.u.
2'F-ANA at 1 2 3 5 6 9 11 14 15: 52.8 a.u.
2'F-ANA at 1 2 4 5 6 7 8 9 10 12: 68.4 a.u.
2'F-ANA at 1 2 4 5 6 8 10 12 13: 224 a.u.
2'F-ANA at 2 3 6 7 8 10 12 15: 406 a.u.
2'F-ANA at 3 4 6 7 8 9 10 13 14 15: 169 a.u.
2'F-ANA at 7 10 11 14 15: 103 a.u.
2'F-ANA at 4 5 8 9 10 13 14: 45.6 a.u.
2'F-ANA at 1 2 4 5 7 8 9 10 14 15: 47.8 a.u.
2'F-ANA at 3 4 7 12 13 14: 461 a.u.
2'F-ANA at 2 3 4 5 6 10 11 13 14 15: 50.8 a.u.
2'F-ANA at 1 3 6 9 10 11 12 13: 83.7 a.u.
2'F-ANA at 1 2 4 5 6 7 8 9 10 11 12: 56.5 a.u.
2'F-ANA at 3 4 7 8 10 15: 322 a.u.
2'F-ANA at 1 4 6 7 11 12 13 15: 138 a.u.

Series 2
Target: CCNB2, cyclin fold, Cln2 fusion (human)
Method: yeast growth competition, sequencing
Matrix: yeast
Notes: weak parent motif
Relative to: not given
Reading: higher = stronger binding
Endpoint: normalised enrichment score
Parent: PKN2 docking peptide (human); VSAVQKLDFSDTM; partner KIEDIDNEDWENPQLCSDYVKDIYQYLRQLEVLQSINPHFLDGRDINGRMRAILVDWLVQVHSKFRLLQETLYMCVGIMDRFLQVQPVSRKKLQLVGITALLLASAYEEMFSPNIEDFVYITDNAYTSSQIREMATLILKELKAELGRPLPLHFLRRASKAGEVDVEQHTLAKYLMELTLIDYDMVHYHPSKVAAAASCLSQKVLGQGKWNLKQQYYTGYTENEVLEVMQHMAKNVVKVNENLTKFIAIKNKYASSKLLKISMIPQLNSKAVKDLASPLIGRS
NSAVQKLDFSDTM [V1N]: 0.467
VSYVQKLDFSDTM [A3Y]: 0.183
VSAVQALDFSDTM [K6A]: -0.307
VSAVQKLDFSPTM [D11P]: 0.0813
VSIVQKLDFSDTM [A3I]: 1.59
VSAVQGLDFSDTM [K6G]: -0.274
VSGVQKLDFSDTM [A3G]: -0.459
VSAQQKLDFSDTM [V4Q]: -0.117
VSAVQKLRFSDTM [D8R]: -0.035
VSAEQKLDFSDTM [V4E]: -0.169
VSAVQKLDFSQTM [D11Q]: -0.42
VSAVQTLDFSDTM [K6T]: 0.218
VSAVQKLDLSDTM [F9L]: -0.0856
VFAVQKLDFSDTM [S2F]: -0.0131
VSAVQKLDFSDTP [M13P]: -0.164
VSAVQKLDFSSTM [D11S]: -0.0298
VSAVQKMDFSDTM [L7M]: -0.231
VSAVQKCDFSDTM [L7C]: -0.278
VSEVQKLDFSDTM [A3E]: -0.354
VSAVQKRDFSDTM [L7R]: -0.278
VSAVQKLDFADTM [S10A]: -0.277
VTAVQKLDFSDTM [S2T]: 0.308
VSAGQKLDFSDTM [V4G]: -0.886

Series 3
Target: ABI1, truncated, D143A, DHFR fusion (Arabidopsis thaliana)
Method: DHFR PCA, deep sequencing
Matrix: yeast
Notes: methotrexate growth selection, single substitutions
Together with: (+)-ABA 0.032 µM
Relative to: wild-type fitted maximum
Reading: higher = stronger binding
Endpoint: relative binding score
Parent: PYL1, truncated, DHFR fusion (Arabidopsis thaliana); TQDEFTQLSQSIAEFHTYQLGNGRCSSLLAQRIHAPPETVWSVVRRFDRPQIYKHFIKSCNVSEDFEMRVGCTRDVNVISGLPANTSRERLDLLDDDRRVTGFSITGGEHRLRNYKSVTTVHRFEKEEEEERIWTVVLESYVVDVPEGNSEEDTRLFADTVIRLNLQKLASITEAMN; partner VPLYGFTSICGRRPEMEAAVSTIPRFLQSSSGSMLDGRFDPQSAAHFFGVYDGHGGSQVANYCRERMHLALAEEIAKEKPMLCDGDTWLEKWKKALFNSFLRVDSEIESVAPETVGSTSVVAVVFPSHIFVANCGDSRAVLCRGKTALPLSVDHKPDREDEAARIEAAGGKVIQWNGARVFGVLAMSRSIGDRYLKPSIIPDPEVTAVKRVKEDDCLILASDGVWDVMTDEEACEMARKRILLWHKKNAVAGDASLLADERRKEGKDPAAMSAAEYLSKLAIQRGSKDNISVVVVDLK
R46A: 12.6%
D75H: 18.4%
I133P: 48.3%
E147Y: 7.07%
C25F: 2.2%
G102T: -0.439%
Q31W: 0.242%
D65Y: -5.65%
T73K: 4.59%
G21T: 28.2%
D92V: 6.99%
A170I: -17.8%
G108D: 4.54%
S87T: 36.2%
S87C: 44.4%
C60F: -5.55%
N22S: 37.6%
S80C: 29.5%
D92Q: -3.17%
V136K: 2.5%

Series 4
Target: RNA binding protein fox-1 homolog 2, RRM domain, GST-SBP tag (RBFOX2, Homo sapiens, UniProt O43251-10, residues 100-194)
Method: RNA Bind-n-Seq
Form: RNA
Matrix: in vitro
Concentration: 365 nM
Notes: natural RNA segment, single round, ends assumed
Relative to: no-protein control
Reading: higher = stronger binding
Endpoint: RBNS enrichment (R)
All sequences stand within: GGGAGUUCUACAGUCCGACGAUC … UGGAAUUCUCGGGUGCCAA
Residues (chain): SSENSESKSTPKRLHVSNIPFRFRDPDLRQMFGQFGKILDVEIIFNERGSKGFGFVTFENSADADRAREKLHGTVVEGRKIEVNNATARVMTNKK
GUACAAUGCCCACGCCUGCCUGGCUGCUUUCACCUGGGAGUGCUUUCGAUGUGGGCACCUGGGCUUCCUAGGGCUGCUUCUGAGUGGUUCUUUCACGUGUUGUGUCCAUA: 0.238
UUAAGCUGUCGACCUUUAGUUUGCCAUACGGGUAGGACUGUAUUUCAUGUUAACAACUGGUGGUAAUGAUAAGCCUUCUUCUAGCGUAUUUUCUCUUCUUUCCUGUCACU: 0.672
AAAAUAUUUUCUGCUUUUUUGACUUGCAUUUGAGAGUUUCUUGUUUCAGUAAAAAAAGAAAAGAAAAGAAAAAUAUCCGUUUUGGAAAAAUAACUUAAAUGCCCCUCCCC: 0.561
UAUUUUCCAGGGAGCUGAUAAAGCAGGAGAACUGUUGCUGCAUGUUUUCUAUUUGGACUCCGUCACAAUAUGGUAGGAUAUCCCUCACCAACUCCCGACACUCAGCAGAC: 1.06
AGAGAGAUCUGCAUGAGGGUGAGAACACACACCUACUCCCACCCAAGGACUCAGAACAACAUGGCUUUUUGAUCGGUACCAACCGACCUACAUCAAUUAGUUAUUGGACU: 2.53
CCUGAGGCCCAGUGGCAGCCUCUGUCACAGGGUCCCAGAGCCUGAGCUGAGGCGUCACCCUUAAAGCCACCCACCUUGAGACCUAUCCUUGCUCCCUCCUUCCCUCCUGU: 0.411
CUGCCUUGUGGUAAACAGCAGGUGUUGGAUCAGAACCAUCGAUUUCCUGGCUGGCACCUGGUGUUGAUUCGCGGAGUUUGGGGACAGAUUCUAUUUCCCCACACCUGUUC: 0.257
AACAGUAUCUAAUUAUAAAUUAGCUGUAGAUAUCAGGUGCUUCUGAUGAAGUGAAAAUGUAUAUCUGACUAGUGGGAAACUUCAUGGGUUUCCUCAUCUGUCAUGUCGAU: 0.296
ACAACAACCCAUAUAAAUAAAACCCACCCCUCUCUGGGAAACAACCAUAAUUCAAACAUGGCUAUUUAGUAAUCAGAAGGUAUUGUCUCAGACAGGAUUUCAUUUCCGGG: 0.364
CAUUUAUACAAGGGCUUGUGUGCCAAUGUUCCUACCAUACCAGCAACUCUUUCUAUCCCGUGAAUAAAAGCAUCCCUUGGCUGGGAUAUAGGGCCACAUCAACCUGAGUU: 1.07
UAAAAAGUCAUUUUAGAUGCCACCCAUUGACUUUGCCACAUAGCUGAACUGUGUUUACUGGAAAAAUUCAGAGGCCUAAAGUUUAAAAUAAAAUUUACUUCUGAUGUUUU: 0.457
CUGAAGGCAUGAAAAUCAAGUGUUCCCUGGAGUUUUGAAGCGAAGAUUCAGGGACAAGUUGAAAGGCACUGAAACUGUGUUGAAGCCAGAUGAGUAAUUAUAAGUAACUG: 0.367

Series 5
Target: CREB3L2, bZIP domain (human)
Method: DHFR protein complementation
Matrix: yeast
Notes: single substitutions, most at no-binding floor
Relative to: wild-type JUN-FOS pair
Reading: higher = stronger binding
Endpoint: binding fitness
Parent: JUN, bZIP domain (human); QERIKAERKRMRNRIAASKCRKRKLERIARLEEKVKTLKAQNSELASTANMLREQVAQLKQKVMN; partner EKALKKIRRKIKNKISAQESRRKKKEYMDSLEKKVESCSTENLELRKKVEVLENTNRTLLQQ
L52S: -1.49 natural log
L31T: -1.51 natural log
R30A: -1.34 natural log
E32P: -1.53 natural log
V56R: -1.45 natural log
S43E: -1.48 natural log
K39R: -1.42 natural log
R53D: -1.48 natural log
L38S: -1.54 natural log
L31S: -1.57 natural log
S47V: -1.22 natural log
S43C: -1.53 natural log
Q55T: -1.61 natural log
A29N: -1.5 natural log
N42I: -1.48 natural log
T37Q: -1.54 natural log
E33R: -1.48 natural log
E44P: -1.5 natural log
E44D: -1.5 natural log
L38R: -1.51 natural log
A40H: -1.51 natural log

A few entries again (series 1):
2'F-ANA at 1 2 3 4 8 10 11 12 14: 46.6 a.u.
2'F-ANA at 1 3 5 6 8 9 10 11 12 13: 47.3 a.u.
2'F-ANA at 2 3 4 5 6 7 8 10 11 12 13 14: 60.1 a.u.
2'F-ANA at 1 2 5 8 13 15: 50.6 a.u.
2'F-ANA at 3 4 5 6 8 10 11 14: 47.2 a.u.
2'F-ANA at 1 2 4 5 7 8 10 11 14: 48.9 a.u.
2'F-ANA at 1 2 3 7 8 9 10 11 12 13 14: 120 a.u.
2'F-ANA at 2 3 4 5 6 7 8 13 14: 52.6 a.u.
2'F-ANA at 2 5 6 7 11: 56.7 a.u.
2'F-ANA at 1 2 3 6 7 8 9 11 12 13 14: 72.9 a.u.
2'F-ANA at 2 3 4 5 6 7 13 14 15: 50 a.u.
